Measurements pooled from the literature.
Each line is one published result; not all experiments were run side by side.
Cell line: HEK-293T

SMILES = Cc1ccc(C(C)C)cc1.O=C(N=P(c1ccccc1)(c1ccccc1)c1ccccc1)c1[c-]cccc1.[Cl-].[Ru+2]; read-out = cell growth or viability; method = MTT; time = 24 h; IC50 = 4.1 µM
SMILES = O=C([O][Ti+2][O]C(=O)c1ccc([P+]([Au-][Cl])(c2ccccc2)c2ccccc2)cc1)c1ccc([P+]([Au-][Cl])(c2ccccc2)c2ccccc2)cc1.c1cc[cH-]c1.c1cc[cH-]c1; read-out = cell growth or viability; method = XTT; time = 72 h; IC50 = 20.1 µM
SMILES = [Cl][Pd-2]1([Cl])[N+](=P(c2ccccc2)(c2ccccc2)c2ccccc2)Cc2cccc[n+]21; read-out = cell growth or viability; method = MTT; IC50 = ~45 µM
SMILES = Cc1ccc(C(C)C)cc1.O=C(N=P12CN3CN(CN(C3)C1)C2)c1[c-]cccc1.[Cl-].[Ru+2]; read-out = cell growth or viability; method = MTT; time = 24 h; IC50 = 142 µM
SMILES = COc1ccc(CONC(=O)C2OC(C)(C)OC2COP(=O)(OCOC(=O)C(C)(C)C)OCOC(=O)C(C)(C)C)c(OC)c1 (stereo not shown); read-out = cytotoxicity; method = Alamar Blue; IC50 = > 200 µM
SMILES = C1=CCCC=CCC1.F[P-](F)(F)(F)(F)F.[Pt+][c]1ccccc1P(=Nc1ccccc1)(c1ccccc1)c1ccccc1; read-out = cell growth or viability; method = MTT; time = 24 h; IC50 = 0.94 µM
SMILES = [Cl][Pd-2]1([Cl])[N+](=P(c2ccccc2)(c2ccccc2)C2C=CC=C2)Cc2cccc[n+]21.[Cl][Pd-2]1([Cl])[N+](=P(c2ccccc2)(c2ccccc2)C2C=CC=C2)Cc2cccc[n+]21.[Fe+2]; read-out = cell growth or viability; method = MTT; time = 74 h; IC50 = 5.6 µM
SMILES = O=C1c2cccc[c]2[Au-]([Cl])([Cl])[N+]1=P(c1ccccc1)(c1ccccc1)c1ccccc1; read-out = cell growth or viability; method = MTT; time = 24 h; IC50 = 14.6 µM
SMILES = Cc1ccc(C(C)C)cc1.F[P-](F)(F)(F)(F)F.O=C(N=P(c1ccccc1)(c1ccccc1)c1ccccc1)c1ccccn1.[Cl-].[Ru+2]; read-out = cell growth or viability; method = MTT; time = 24 h; IC50 = 2.8 µM
SMILES = [Cl][Au-]1([Cl])[N+](=P(c2ccccc2)(c2ccccc2)C2C=CC=C2)Cc2cccc[n+]21.[Cl][Au-]1([Cl])[N+](=P(c2ccccc2)(c2ccccc2)C2C=CC=C2)Cc2cccc[n+]21.[Fe+2].[O-][Cl+3]([O-])([O-])[O-].[O-][Cl+3]([O-])([O-])[O-]; read-out = cell growth or viability; method = MTT; time = 74 h; IC50 = 4 µM
SMILES = CC1(C)CCN(Cc2ccc(C(=O)NC[C@]3(O)CCCN(c4cc(NCc5ccccc5)ncn4)C3)c(O)c2)CC1; read-out = m6A mRNA level; method = UPLC-MS/MS; time = 16 h; IC50 = 15 µM
SMILES = [Fe+2].c1ccc(N=P(c2ccccc2)(c2ccccc2)[c-]2cccc2)cc1.c1ccc(N=P(c2ccccc2)(c2ccccc2)[c-]2cccc2)cc1; read-out = cell growth or viability; method = MTT; time = 74 h; IC50 = 45 µM
SMILES = O=C(O)c1ccc([P+]([Au-][Cl])(c2ccccc2)c2ccccc2)cc1; read-out = cell growth or viability; method = XTT; time = 24 h; IC50 = 34.2 µM

Some of these lines once more:
SMILES = COc1ccc(CONC(=O)C2OC(C)(C)OC2COP(=O)(OCOC(=O)C(C)(C)C)OCOC(=O)C(C)(C)C)c(OC)c1 (stereo not shown); read-out = cytotoxicity; method = Alamar Blue; IC50 = > 200 µM
SMILES = C1=CCCC=CCC1.F[P-](F)(F)(F)(F)F.[Pt+][c]1ccccc1P(=Nc1ccccc1)(c1ccccc1)c1ccccc1; read-out = cell growth or viability; method = MTT; time = 24 h; IC50 = 0.94 µM
